Published values collected from several papers.
Compare with care: the assays were run in different laboratories. “And” joins repeats or separate records; there may be more than shown. Numbers after ± are the reported error.

C[C@H](Oc1ccc(Br)cc1-c1ccon1)C(=O)O
difference from placebo (last response latency; human, tibialis anterior muscle; 100 mg, 15 Hz, SAD): -0.895%

CC[C@@H]1[C@H](F)C(=O)N[C@@H]1COc1nccc2cc(C(N)=O)c(OC)cc12
inhibition (ATP-site probe binding, ActivX profiling, measured: PCTAIRE1, PCTAIRE3; THP-1 cell lysate; 0.01 mM, Lys2 site): -0.643%

C[C@]1(c2nc3c(C(N)=O)cccc3[nH]2)CCCN1
PAR reduction (measured: poly(ADP-ribose); cancer patients, PBMC; 1.2 mg/m2/day, all but highest dose, together with: topotecan): > 50%

c1ccc(-c2n[nH]cc2-c2ccnc3ccccc23)nc1
log2 fold change (kinase binding, competitor, MIB/MS competition, measured: KIN3; Candida albicans cell lysate; 1 µM; relative to: DMSO): 1.26

O=C(O)CNC(=O)Cc1ccccc1
sarcomere length (ventricular cardiomyocytes, C57BL/6 mouse; dose not given, 0.584 s): 1.65 µm

CCCCC1(CCCC)CN(c2ccccc2)c2cc(SC)c(OCC(=O)N[C@@H](C(=O)NCC(=O)O)c3ccccc3)cc2S(=O)(=O)C1
plasma C4 (measured: 7α-hydroxy-4-cholesten-3-one; human, plasma; 5 mg once daily, day 9): 72.6 ng/mL

COc1cc2nccc(Oc3ccc(NC(=O)NC4CC4)c(Cl)c3)c2cc1C(N)=O
Ang-2 tumour reduction rate constant (measured: sum of target lesion diameters; human, RR-DTC patients; tumour growth model, point estimate): -0.0144 /week

CC(C)NCC(O)c1ccc(O)c(O)c1 (stereo not drawn)
sarcomere length (ventricular cardiomyocytes, C57BL/6 mouse; dose not given, 0.66 s): 1.72 µm

Cn1cc(Nc2nccc(-c3ccc4c(c3)CN(C3COC3)CC[C@H]4NC(=O)c3cn(C(C)(C)C)nn3)n2)cn1
pathway activation z-score (measured: Cardiac Hypertrophy Signaling; splenic B cells, mouse; in vivo, 30 mg/kg, IgD-activated B cells; relative to: vehicle, positive = activation): 4.49

COc1ccc(CN2CCN(C(c3ccc(F)cc3)c3ccc(F)cc3)CC2)c(OC)c1OC.Cl.Cl
inhibition (Nedd8-cullin1 interaction; neddylation, AlphaScreen; 100 µM): -8.9%

C[C@@H](NC(=O)N1C(=O)[C@H](Cc2ccnc(N)c2)[C@H]1C(=O)O)C1CCCCC1
aPTT AUEC (human; iv infusion, 0.6 mg/kg/h, 24 h): 5910 h·s

C[C@@H](O)CCOC(=O)C[C@@H](C)O
metabolite level (measured: C8:1-DC acylcarnitine; human, plasma; 60 min, log2-transformed values): -5.11 ± 0.69 µmol/L

C[C@@H]1CCC[C@H](n2cnc(-c3cc(Cl)ccc3-n3cc(Cl)nn3)cc2=O)c2cc(ccn2)-c2c(cnn2C(F)F)NC1=O
concentration for aPTT prolongation (rat plasma; IC2.5× aPTT, Actin FS reagent): > 40 µM

N#Cc1ccn2c(-c3ccncc3)c(-c3ccc(F)cc3)nc2c1
log2 fold change (kinase binding, competitor, MIB/MS competition, measured: SCH9; Candida albicans cell lysate; 10 µM; relative to: DMSO): -0.18

CN[C@@H]1COc2c(S(=O)(=O)NC(=O)Nc3c4c(cc5c3CCC5)CCC4)cnn2C1
inhibition (measured: IL-18; human participants, whole blood ex vivo; 150 mg single dose, 48 h, IL-18, circulating, adjusted for, together with: LPS/ATP; relative to: baseline): 53.9%

NCC(=O)Nc1cncc(-c2nn3c(=O)cc(N4CCNCC4)nc3s2)c1
inhibition of platelet aggregation (ADP-induced platelet aggregation, light transmission aggregometry; human stable CAD patients on aspirin, platelets ex vivo; 0.04 mg/kg, 120 min post dose, together with: 20 µM ADP; relative to: placebo difference): 1.32%

CCO[C@H]1CCN(Cc2c(OC)cc(C)c3[nH]ccc23)[C@H](c2ccc(C(=O)O)cc2)C1
C3d-positive type III RBCs (PNH patients, blood; oral, 50 mg then 200 mg, week 12, mean percent change; relative to: baseline): -84.6%

NC(=O)c1cnc2[nH]ccc2c1N[C@@H]1[C@@H]2CC3C[C@H]1C[C@@](O)(C3)C2
CD4+ memory T-cell change (flow cytometry; Japanese healthy men, blood; oral, 100 mg twice daily, 72 h after day 7 dose; relative to: baseline): -0.57%

N#Cc1ccc2c(c1)[C@H]1CCCN(C(=O)c3ccc4[nH]cnc4c3)[C@H]1C2
change in fasting insulin (human, plasma; 360 mg, day 15; relative to: baseline, placebo-corrected): -20.7%

CC#Cc1cncc(-c2ccc3c(c2)[C@@]2(N=C(C)C(N)=N2)[C@]2(CC[C@H](OC)CC2)C3)c1
time to maximum effect (measured: Aβ40 and Aβ42; C57BL/6 mice, brain; oral, dose not given): 3 h

C[C@H]1C[C@H]2CSC(N)=N[C@@]2(c2nc(NC(=O)c3ccc(OC(F)F)cn3)cs2)CO1
percent change from baseline (measured: Aβx-40; healthy adults, plasma; 15 mg once daily, day 2; relative to: placebo): -43.9%

O=C(COc1ccc(Cl)cc1)NC12CC(c3nnc([C@H]4C[C@@H](OC(F)(F)F)C4)o3)(C1)C2
ATF4 protein change (healthy human, PBMC; 100 mg once daily, day 15, 24 h post-dose, median, together with: sodium arsenite ex vivo; relative to: baseline): -73.4%

O=C1Nc2cc3[nH]nc(-c4ccncc4)c3cc2CN1Cc1ccccc1
partial response, best response (RECIST v1.1; human, relapsed or refractory advanced solid tumours; intravenous, 1.8 mg/kg, pooled schedules): 0%

CC(C)[C@H](C(=O)Nc1ccc(C(=O)NO)cc1)c1ccccc1
annual tumour growth rate (volumetric MRI; human, left IAC schwannoma; dose not given, on treatment, day 224): 92 %/year

Cc1cc(Nc2ccc(S(F)(F)(F)(F)F)cc2)n2nc(C(C)(F)F)nc2n1
DHO concentration (measured: dihydroorotate; female CD-1 mice, pooled urine; oral, 300 mg/kg daily, 8-24 h after dose 10): 8.4 ± 0.637 µM

Cc1n[nH]c2ccc(-c3cc(OC[C@@H](N)Cc4ccccc4)cnc3-c3ccoc3)cc12
log2 fold change (kinase binding, competitor, MIB/MS competition, measured: YCK2; Candida albicans cell lysate; 10 µM; relative to: DMSO): -3.65

COc1ccccc1[C@H](Cn1c(=O)n(C(C)(C)C(=O)O)c(=O)c2c(C)c(-c3ncco3)sc21)OC1CCOCC1
blood LDL level (human; 50 mg, post-treatment): 120 ± 42.5 mg/dL

N#CCC1CCN(c2nc(Nc3ccc(N4CCC(O)CC4)cc3)c3c(=O)[nH]ncc3n2)CC1
fold change from baseline (Olink multiplex, measured: CDCP1; human, serum; 20 mg, day 15; relative to: baseline): -1.1

OC(CCN1CCCCC1)(c1ccccc1)C1CC2C=CC1C2 (stereo not drawn)
EEG Beta1-power Pz-O1 (resting-state EEG; healthy elderly humans; oral, 4 mg, eyes open, LS mean): 3.5 µV²

CC1=C(Cc2cn(CCN3CCC(=O)CC3)nn2)C(=O)c2ccccc2C1=O
killing (Schistosoma mansoni; adult worms; 25 µM, 48 h): 47.4%

COc1nnc2ccc(N3CCC(c4ccc(OCCN5CCN(C)C(=O)[C@H]5C)cc4)CC3)nn12
time above HEXIM1 threshold (human patients; 5 mg once daily, above baseline variability): 1.54 h

CCOc1c([C@H](C)n2nc(C)c3c(N)ncnc32)cc(Cl)c(F)c1[C@@H]1CNC(=O)C1
plasma protein level change (Olink proximity extension proteomics, measured: FCER2; human FL or MZL patients, plasma; dose not given, week 8; relative to: baseline): -51%

CCOC(=O)[N-]c1cn(N2CCOCC2)n[o+]1
inhibition (Nedd8-cullin1 interaction; neddylation, AlphaScreen; 100 µM): 6.3%

COc1cc(Nc2ncc3c(n2)-c2ccc(Cl)cc2C(c2c(F)cccc2OC)=NC3)ccc1C(=O)O
median response score (mouse, NB-1643 neuroblastoma xenograft; 10.4 mg/kg; direction not given): 10

CC1(C)CCC(CN2CCN(c3ccc(C(=O)NS(=O)(=O)c4ccc(NCC5CCOCC5)c([N+](=O)[O-])c4)c(Oc4cnc5[nH]ccc5c4)c3)CC2)=C(c2ccc(Cl)cc2)C1
EC50 (cell killing, flow cytometry PI exclusion; canine blood CD21+ B cells, dog 34; 24 h): 1110 nM

Cc1nn(-c2nc3c(F)cc(F)cc3s2)c(O)c1C(c1ccc(C(F)(F)F)cc1)c1c(C)nn(-c2nc3c(F)cc(F)cc3s2)c1O
lipase activity (mouse, cerulein-induced acute pancreatitis, serum; 25 mg/kg, 192 h): 140 mOD/min and 116 mOD/min and 88.7 mOD/min and 83.7 mOD/min and 96.1 mOD/min

CC(c1cc2ccccc2s1)N(O)C(N)=O (stereo not drawn)
amount (measured: 4-HDHA; human whole blood; 3 µM, together with: Escherichia coli): 76 ± 26 pg/mL blood

N#Cc1ccc2c(-c3ccncc3)c(-c3ccc(F)cc3)nn2c1
log2 fold change (kinase binding, competitor, MIB/MS competition, measured: KSP1; Candida albicans cell lysate; 100 nM; relative to: DMSO): 0.0623

CC(=O)NCC(=O)NCC(=O)N[C@H](C(=O)N[C@@H](Cc1ccc(O)cc1)C(=O)N[C@@H](CO)C(=O)N[C@H]1CSSC[C@@H](C(=O)N[C@@H](CCCNC(=N)N)C(=O)N2CCC[C@H]2C(=O)N[C@@H](CCC(N)=O)C(=O)N[C@@H](CCCNC(=N)N)C(=O)NCC(=O)NCCC(=O)N[C@@H](CCCCNC(=O)CN(CC(=O)NCCCC[C@H](NC(=O)CCNC(=O)CNC(=O)[C@H](CCCNC(=N)N)NC(=O)[C@H](CCC(N)=O)NC(=O)[C@@H]2CCCN2C(=O)[C@H](CCCNC(=N)N)NC(=O)[C@@H]2CSSC[C@H](NC(=O)[C@H](CO)NC(=O)[C@H](Cc3ccc(O)cc3)NC(=O)[C@@H](NC(=O)CNC(=O)CNC(C)=O)[C@@H](C)O)C(=O)N[C@@H](Cc3c[nH]cn3)C(=O)N[C@@H](Cc3ccccc3)C(=O)NCC(=O)N[C@@H](C)C(=O)N[C@@H](CC(C)C)C(=O)N[C@@H]([C@@H](C)O)C(=O)N[C@@H](Cc3c[nH]c4ccccc34)C(=O)N[C@@H](C(C)C)C(=O)N2)C(N)=O)C(=O)CCN)C(N)=O)NC(=O)[C@H](C(C)C)NC(=O)[C@H](Cc2c[nH]c3ccccc23)NC(=O)[C@H]([C@@H](C)O)NC(=O)[C@H](CC(C)C)NC(=O)[C@H](C)NC(=O)CNC(=O)[C@H](Cc2ccccc2)NC(=O)[C@H](Cc2c[nH]cn2)NC1=O)[C@@H](C)O
haematocrit (healthy BALB/c mice; subcutaneous, 0.16 mg/kg, 8 d, single dose): 40.8%

O=C(OC(C(F)(F)F)C(F)(F)F)N1CCN(Cc2cccc(Oc3ccccc3)c2)CC1
k4 (PET blocking study; rhesus monkey, brain HIP; 0.1 mg/kg, compound pretreatment, together with: [18F]T-401 tracer): 0.07 min⁻¹

CO[C@H]1CC[C@H](N2C(=O)CNc3ncc(-c4ccc(C(C)(C)O)nc4)nc32)CC1
p4EBP1 change from baseline (flow cytometry; stimulated T cells, human, blood; 45 mg single dose, 1.5 h, median; relative to: baseline): -56.6%

CC1=C(Cn2cc(CN)nn2)C(=O)c2ccccc2C1=O
killing (Schistosoma mansoni; adult worms; 25 µM, 24 h): 50.4%
